Assay results collected from several papers.
Every numbered part comes from another study and shows a few of its results, in no order. Substitutions count along the parent as printed.

Set 1
Target: Histone acetyltransferase KAT6A, winged helix 2, GST fusion (KAT6A, Homo sapiens, UniProt Q92794, residues 85-181)
Method: protein binding microarray
Molecule type: double-stranded DNA, one strand shown
Matrix: in vitro
Concentration: not given
Notes: 8-mer, flanks averaged, mean of 2 arrays, mostly near background
Baseline: not given
Reading: higher = stronger binding
Construct (chain): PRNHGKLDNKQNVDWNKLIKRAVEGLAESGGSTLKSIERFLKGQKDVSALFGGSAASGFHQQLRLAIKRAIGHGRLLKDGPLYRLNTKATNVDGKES
`AAAGGTGT` has an E-score of -0.206.
`GGCATGCC` gave an E-score of 0.0753.
The E-score of `GTTTCGAA` is reported as 0.0937.
With `ATCTTCTA` the E-score was -0.113.
With `CACAAACG` the E-score was 0.239.
For `CGACCGAG`, the E-score was 0.119.

Set 2
Target: CCNE1, cyclin fold, Cln2 fusion (human)
Method: yeast growth competition, sequencing
Matrix: yeast
Notes: weak parent motif
Baseline: not given
Reading: higher = stronger binding
Starting sequence: SLBP docking peptide (human); ARYKRKLLINDFG
`ARQKRKLLINDFG [Y3Q]` — result for “normalised enrichment score”: 0.39.
Under “normalised enrichment score”, `ARYKPKLLINDFG [R5P]` is recorded as 0.5.
`SRYKRKLLINDFG [A1S]`: “normalised enrichment score” 0.911.
`ADYKRKLLINDFG [R2D]`: “normalised enrichment score” 1.08.
For `ARYKRKLLINDFW [G13W]`, “normalised enrichment score” read 0.414.
`ARYKRKLLINRFG [D11R]` — result for “normalised enrichment score”: 0.78.
Under “normalised enrichment score”, `ARYKRKLHINDFG [L8H]` is recorded as 0.255.

Set 3
Target: Prothrombin, mature alpha-thrombin (F2, Homo sapiens, UniProt P00734)
Method: aptamer microarray, sandwich
Molecule type: DNA with 2'F-ANA
Matrix: in vitro
Concentration: 200 nM
Notes: whole 15-mer aptamer, many near background
Added: Cy3 exosite-II aptamer, 400 nM
Reading: higher = stronger binding
Oligonucleotide: GGTTGGTGTGGTTGG
`2'F-ANA at 2 8 9 11 12 14` — result for “mean fluorescence intensity”: 240 a.u.
For `2'F-ANA at 1 2 4 5 9 10 12 13`, “mean fluorescence intensity” read 48.2 a.u.
For `2'F-ANA at 5 7 8 9 10 12 15`, “mean fluorescence intensity” read 115 a.u.
For `2'F-ANA at 3 6 10 12 13 14`, “mean fluorescence intensity” read 387 a.u.
Under “mean fluorescence intensity”, `2'F-ANA at 1 3 7 9 12 13 14` is recorded as 103 a.u.

Further values, each from its own experiment
For `PhoQ, residues 284 288 289 292 302 303 NSMLDC`, the fold induction was 4.79 (PhoP, residues 12 14 15 18 19 LHSVW (Escherichia coli, UniProt P23836); Sort-seq, refers to: YFP reporter; E. coli; PhoQ-PhoP variant library, added: 10 µM Mg2+; baseline: high Mg2+ state, higher = stronger signaling).
